Measurements of several laboratories.
Organism: Escherichia coli

CCn1cc(C(=O)O)c(=O)c2cc(F)c(N3CCNCC3)cc21  MIC (broth microdilution; G92; 18 h): 0.25 µg/mL
N=C(N)c1ccc(OCCCCCCCOc2ccc(C(=N)N)cc2)cc1  MIC (BW25113; compound alone): 200 µg/mL
CO[C@@H]1CC(=O)O[C@H](C)C/C=C/C=C/[C@H](O[C@H]2CC[C@H](N(C)C)[C@@H](C)O2)[C@H](C)C[C@H](CC=O)[C@H](O[C@@H]2O[C@H](C)[C@@H](O[C@H]3C[C@@](C)(O)[C@@H](O)[C@H](C)O3)[C@H](N(C)C)[C@H]2O)C1  MIC (ATCC 25922): 320 µM
CN[C@@H]1[C@H](O[C@H]2[C@H](O[C@H]3[C@H](O)[C@@H](O)[C@H](N=C(N)N)[C@@H](O)[C@@H]3N=C(N)N)O[C@@H](C)[C@]2(O)C=O)O[C@@H](CO)[C@H](O)[C@H]1O  MIC (broth microdilution; G92; 18 h): 64 µg/mL
C=C/C=C(\C)CC[C@H]1C[C@H](O)CC(=O)O1  MIC (broth microdilution; KCTC 2571; 37 °C, Mueller-Hinton broth): 128 µg/mL
O=C(Cc1ccccc1)N[C@@H]1C(=O)N2C(C(=O)O)=C(CSc3cccc4cccnc34)C[S+]([O-])[C@H]12 (some centres unmarked)  MIC (2018-015): > 128 µg/mL
N=C(N)c1ccccc1OCc1ccc(COc2ccccc2C(=N)N)cc1  MIC (BW25113; compound alone, rifampicin checkerboard): > 200 µg/mL
CO[C@H]1/C=C/O[C@@]2(C)Oc3c(C)c(O)c4c(O)c(c(/C=N/N5CCN(C)CC5)c(O)c4c3C2=O)NC(=O)/C(C)=C\C=C\[C@H](C)[C@H](O)[C@@H](C)[C@@H](O)[C@@H](C)[C@H](OC(C)=O)[C@@H]1C  MIC (broth microdilution OD600; Mueller-Hinton broth; 24 h, 37 °C, added: 1 mM MgCl2): 16 µM
C[C@@H](O)[C@H]1C(=O)N2C(C(=O)O)=C(S[C@@H]3CN[C@H](C(=O)N(C)C)C3)[C@H](C)[C@H]12  MIC (DH5alpha pET28-lacUV5 control; compound alone): < 0.125 µg/mL
CC(C)Oc1c(NC(=O)c2ccc(N3C(=O)C[C@H](NC(=O)c4cc(F)c(/N=N/c5c(F)cccc5F)c(F)c4)C3=O)cc2)ccc(C(=O)N/N=C/c2c(Cl)cncc2Cl)c1O  MIC (BW25113; dark ground state): > 6.4 µg/mL
CC[C@H](C)[C@H](NC(=O)CN)C(=O)N[C@@H](CC(C)C)C(=O)N[C@@H](CC(=O)O)C(=O)N[C@@H](C)C(=O)N[C@H](C(=O)N[C@@H](CCCCN)C(=O)N[C@@H](C)C(=O)N[C@H](C(=O)N[C@@H](C)C(=O)N[C@@H](CCCCN)C(=O)N[C@@H](C)C(=O)N[C@@H](C)C(=O)NCC(N)=O)[C@@H](C)CC)[C@@H](C)CC  MIC (ATCC 25922, Mueller-Hinton broth; 12 h, 37 °C): 128 µg/mL
CO[C@H]1C[C@H](O[C@H]2[C@H](C)[C@@H](O[C@@H]3O[C@H](C)C[C@H](N(C)C)[C@H]3OC(C)=O)[C@@H](C)C[C@@]3(CO3)C(=O)[C@H](C)[C@@H](OC(C)=O)[C@@H](C)[C@@H](C)OC(=O)[C@@H]2C)O[C@@H](C)[C@@H]1OC(C)=O  MIC (ATCC 25922): 640 µM
CC[C@H](C)[C@H](NC(=O)[C@H](C)NC(=O)CNC(=O)[C@H](C)NC(=O)[C@H](CCCCN)NC(=O)[C@H](CO)NC(=O)[C@H](C)NC(=O)[C@H](CCSC)NC(=O)CN)C(=O)N[C@@H](C)C(=O)NCC(=O)N[C@@H](CCCCN)C(=O)N[C@H](C(=O)N[C@@H](C)C(=O)N[C@@H](CCCCN)C(=O)N[C@H](C(=O)N[C@@H](C)C(=O)N[C@@H](CC(C)C)C(=O)N[C@@H](CCCCN)C(=O)N[C@@H](C)C(=O)N[C@@H](CC(C)C)C(=O)O)C(C)C)[C@@H](C)CC  MIC (broth dilution; K12 BW25113; 18 h, 37 °C): 38.1 µM
N=C(N)c1ccccc1OCCCCCOc1ccccc1C(=N)N  MIC (BW25113; compound alone, rifampicin checkerboard): > 200 µg/mL
CO[C@H]1/C=C/O[C@@]2(C)Oc3c(C)c(O)c4c(O)c(c(/C=N/Nc5ccc(C)c(Cl)c5)c(O)c4c3C2=O)NC(=O)/C(C)=C/C=C/[C@H](C)[C@H](O)[C@@H](C)[C@@H](O)[C@@H](C)[C@H](OC(C)=O)[C@H]1C  MIC (ATCC 25922): 20 µM
Cc1ccc(C(C)C)c(OC2=C(Cl)C(=O)c3ccccc3C2=O)c1  MIC (broth microdilution; MTCC 405): 10 µg/mL
C[C@@H](O)[C@H]1C(=O)N2C(C(=O)O)=C(S[C@@H]3CN[C@H](C(=O)N(C)C)C3)[C@H](C)[C@H]12  MIC (broth microdilution; ATCC 25922; compound alone): 0.03 µg/mL
C[C@@H](O)[C@H]1C(=O)N2C(C(=O)O)=C(S[C@@H]3CN[C@H](C(=O)N(C)C)C3)[C@H](C)[C@H]12  MIC (broth microdilution; G92; 18 h): 0.002 µg/mL
CC(C)Oc1c(NC(=O)c2ccc(N3C(=O)C[C@H](NC(=O)c4ccc(NC(=O)c5ccc(C#N)cc5)cc4)C3=O)cc2)ccc(C(=O)N/N=C/c2cccn2C)c1O  MIC (BW25113; 18 h, 37 °C, irradiated at 365 nm, photostationary state): 0.84 µg/mL
CN[C@@H]1[C@@H](O[C@H]2O[C@H](CO)[C@@H](N)[C@H](O)[C@H]2O)OC2C[C@@H](N)[C@@H](O[C@H]3[C@H](O)[C@@H](O)[C@H](N)C[C@@H]3N)OC2[C@@H]1O (some centres unmarked)  MIC (broth microdilution; ATCC 25922; ambient air): 8 µg/mL
O=[N+]([O-])c1ccc2[nH]c(CNCC34CC5CC(CC(C5)C3)C4)nc2c1  MIC (ATCC 25922): > 128 µg/mL
CC1(C)S[C@@H]2[C@H](NC(=O)[C@H](N)c3ccccc3)C(=O)N2[C@H]1C(=O)O  MIC (DH5α): 8.6 µg/mL
CC(C)Oc1c(NC(=O)c2ccc(NC(=O)[C@H](CC(N)=O)NC(=O)c3cc(F)c(/N=N/c4c(F)cccc4F)c(F)c3)cc2)ccc(C(=O)N/N=C/c2ccc(C(=O)O)s2)c1O  MIC (BW25113; after 1 h irradiation at 365 nm): > 6.4 µg/mL
C[C@H]1[C@H](NC(=O)/C(=N\OC(C)(C)C(=O)O)c2csc(N)n2)C(=O)N1S(=O)(=O)O  MIC (agar dilution; 16-1 ESBL): ≤ 0.03 µg/mL
CC[C@H](C)CCCCC(=O)N[C@@H](CCN)C(=O)N[C@H](C(=O)N[C@@H](CCN)C(=O)N[C@H]1CCNC(=O)[C@H]([C@@H](C)O)NC(=O)[C@H](CCN)NC(=O)[C@H](CCN)NC(=O)[C@H](CC(C)C)NC(=O)[C@@H](CC(C)C)NC(=O)[C@H](CCN)NC1=O)[C@@H](C)O  MIC (broth microdilution; ATCC 35218, cation-adjusted Mueller-Hinton broth; 18 to 20 h, 37 °C, 0.002% polysorbate 80): 0.125 µg/mL
C=C[C@]1(C)C[C@@H](OC(=O)CO)[C@]2(C)[C@H](C)CC[C@]3(CCC(=O)[C@H]32)[C@@H](C)[C@@H]1O  MIC (ATCC 25922): > 40 µM
O=C(N[C@H](CO)[C@H](O)c1ccc([N+](=O)[O-])cc1)C(Cl)Cl  MIC (broth microdilution; ATCC 25922; 5% CO2): 4 µg/mL
Cc1c(CN(C)C(=O)/C=C/c2cnc3c(c2)CC(NC(=O)OC(C)(C)C)C(=O)N3)oc2ccccc12 (centres unmarked)  MIC (broth microdilution; AR-0543): > 32 µg/mL
CN(C)[C@@H]1C(O)=C(C(N)=O)C(=O)[C@@]2(O)C(O)=C3C(=O)c4c(O)cccc4[C@@](C)(O)[C@H]3C[C@@H]12  MIC (tetracycline-resistant (pBR322)): 900 µM
CNC(C)C1CCC(N)C(OC2C(N)CC(N)C(OC3OCC(C)(O)C(NC)C3O)C2O)O1 (centres unmarked)  MIC (broth microdilution; ATCC 25922; ambient air): 0.5 µg/mL
[Cl][Fe]([Cl])[Cl]  MIC (24 h, 37 °C): > 1600 µM
CO[C@H]1/C=C/O[C@@]2(C)Oc3c(C)c(O)c4c(c3C2=O)C(=O)C(N2CCN(c3nc(-c5ccccc5)cs3)CC2)=C(NC(=O)/C(C)=C/C=C/[C@H](C)[C@H](O)[C@@H](C)[C@@H](O)[C@@H](C)[C@H](OC(C)=O)[C@H]1C)C4=O  MIC (ATCC 25922): 20 µM
CC[C@H]1OC(=O)[C@H](C)[C@@H](O[C@H]2C[C@@](C)(OC)[C@@H](O)[C@H](C)O2)[C@H](C)[C@@H](O[C@@H]2O[C@H](C)C[C@H](N(C)C)[C@H]2O)[C@](C)(O)C[C@@H](C)CN(C)[C@H](C)[C@@H](O)[C@]1(C)O  MIC (broth microdilution; 18 h): 16 µg/mL
CCn1cc(C(=O)O)c(=O)c2ccc(C)nc21  MIC (ATCC 25922): 20 µM
N=C(N)c1ccc(OCc2ccc(-c3ccccc3)cc2COc2ccc(C(=N)N)cc2)cc1  MIC (W3110; in combination, checkerboard, added: rifampicin): 25 µg/mL
Cc1cc(-c2cn[nH]c2-c2cccc(OCc3cccc(C#N)c3)c2)cc(C)n1  MIC (broth microdilution; ATCC 25922): 1 µg/mL
N=C(N)c1ccc(OCc2cc(COc3ccc(C(=N)N)cc3)cc(-c3ccccc3)c2)cc1  MIC (552100; compound alone): 200 µg/mL
CO[C@H]1/C=C/O[C@@]2(C)Oc3c(C)c(O)c4c(c3C2=O)C(=O)C(N2CCN(c3cc(C)nc5ccccc35)CC2)=C(NC(=O)/C(C)=C/C=C/[C@H](C)[C@H](O)[C@@H](C)[C@@H](O)[C@@H](C)[C@H](OC(C)=O)[C@H]1C)C4=O  MIC (ATCC 25922): 20 µM
CN(C)c1ccc2nc3ccc(=[N+](C)C)cc-3sc2c1  MIC (ATCC 25922; 18 h, 37 °C, dark): > 128 µM
NC[C@H]1O[C@H](O[C@H]2[C@H](O)[C@@H](O[C@H]3O[C@H](CO)[C@@H](O)[C@H](N)[C@H]3O)[C@H](N)C[C@@H]2N)[C@H](O)[C@@H](O)[C@@H]1O  MIC (broth microdilution; ATCC 25922): 6.87 µM
CC[C@H]1OC(=O)[C@H](C)[C@@H](O[C@H]2C[C@@](C)(OC)[C@@H](O)[C@H](C)O2)[C@H](C)[C@@H](O[C@@H]2O[C@H](C)C[C@H](N(C)C)[C@H]2O)[C@](C)(O)C[C@@H](C)/C(=N\OCOCCOC)[C@H](C)[C@@H](O)[C@]1(C)O  MIC (ATCC 25922): 160 µM
NC[C@H]1O[C@H](O[C@H]2[C@H](O)[C@@H](O[C@H]3O[C@H](CO)[C@@H](O)[C@H](N)[C@H]3O)[C@H](N)C[C@@H]2N)[C@H](N)C[C@@H]1O  MIC (broth microdilution; ATCC 25922; ambient air): 0.5 µg/mL
N=C(N)c1ccc(OCc2cccc(COc3ccc(C(=N)N)cc3)c2)cc1  MIC (552100; compound alone): 100 µg/mL
Cc1c(CN(C)C(=O)/C=C/c2cnc3c(c2)CC(CCN)C(=O)N3)oc2ccccc12.Cl (centres unmarked)  MIC (broth microdilution; AR-0493): 4 µg/mL

Excerpt of the above:
N=C(N)c1ccc(OCc2cccc(COc3ccc(C(=N)N)cc3)c2)cc1  MIC (552100; compound alone): 100 µg/mL
CO[C@H]1/C=C/O[C@@]2(C)Oc3c(C)c(O)c4c(O)c(c(/C=N/Nc5ccc(C)c(Cl)c5)c(O)c4c3C2=O)NC(=O)/C(C)=C/C=C/[C@H](C)[C@H](O)[C@@H](C)[C@@H](O)[C@@H](C)[C@H](OC(C)=O)[C@H]1C  MIC (ATCC 25922): 20 µM
N=C(N)c1ccccc1OCc1ccc(COc2ccccc2C(=N)N)cc1  MIC (BW25113; compound alone, rifampicin checkerboard): > 200 µg/mL
